Assay results collected from several papers.
Parts stem from different laboratories: compare values within a part only. Positions count from the first letter of the parent shown.

Set 1 — method: protein-binding microarray; form: double-stranded DNA, one strand shown; matrix: in vitro; tested at: not given; reading: higher = stronger binding
Target: Myc proto-oncogene protein, bHLH-zipper, MAX partner unstated (MYC, Homo sapiens, UniProt P01106, residues 368-449)
Sequence of UniProt P01106 (368-449, looked up): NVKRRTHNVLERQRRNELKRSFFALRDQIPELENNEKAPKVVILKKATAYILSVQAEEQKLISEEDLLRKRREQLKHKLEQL
Notes: k-mer, scored over probes, only values ≥0.25
Sequence	E-score
ACGTGCAG	0.431
AGGGCACG	0.318
CGAGGTAG	0.254
ATGAGCAC	0.33
ACGCGGTG	0.349
CCACGCAA	0.314
GCACGTGC	0.495
CATGCGCC	0.442
TCCATGCA	0.335
CCCGCGCG	0.289
GGAACGCA	0.293
ATGAGGTG	0.307
CGTGGAGA	0.362
AAACGTGG	0.438
ACACGCGT	0.461
CGCGCGAC	0.267
CGTGCACG	0.434
AGAACATG	0.293
ACACGTTA	0.373
CGCACGCC	0.371
CCACCGCG	0.278
AACACGCC	0.376

Set 2 — method: DHFR PCA, deep sequencing; matrix: yeast; with: (+)-ABA 58 µM; baseline: wild-type fitted maximum; reading: higher = stronger binding
Target: ABI1, truncated, D143A, DHFR fusion (Arabidopsis thaliana)
Notes: methotrexate growth selection, single substitutions
Starting sequence: PYL1, truncated, DHFR fusion (Arabidopsis thaliana); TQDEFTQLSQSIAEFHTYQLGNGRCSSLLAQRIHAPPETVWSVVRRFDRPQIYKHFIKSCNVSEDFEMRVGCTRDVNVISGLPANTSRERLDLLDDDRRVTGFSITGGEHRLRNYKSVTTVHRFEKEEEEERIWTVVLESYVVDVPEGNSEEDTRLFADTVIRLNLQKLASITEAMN
Variant	relative binding score
V40P	-5.95%
I172M	74.9%
L28Q	51.9%
T73I	88.2%
V136P	5.79%
S9D	86.4%
V136G	12.9%
K54D	-9.01%
K168I	58.8%
T106C	85.6%
K126E	96.6%
R46M	75.6%
H55S	87.8%
R155Q	75.4%
E131M	96.1%
Y53W	81%
R24Y	63.1%
V121R	-11.3%
V40I	54.6%
E127N	95%
N61A	88%
E174L	51.2%

Set 3 — method: RNA Bind-n-Seq; form: RNA; matrix: in vitro; tested at: not given; notes: RNA with constant flanks, ends assumed; baseline: input RNA pool; reading: higher = stronger binding
Target: RING finger protein unkempt homolog, zinc fingers 1-6, GST-SBP tag (UNK, Homo sapiens, UniProt Q9C0B0, residues 30-357)
Sequence of UniProt Q9C0B0 (30-357, looked up): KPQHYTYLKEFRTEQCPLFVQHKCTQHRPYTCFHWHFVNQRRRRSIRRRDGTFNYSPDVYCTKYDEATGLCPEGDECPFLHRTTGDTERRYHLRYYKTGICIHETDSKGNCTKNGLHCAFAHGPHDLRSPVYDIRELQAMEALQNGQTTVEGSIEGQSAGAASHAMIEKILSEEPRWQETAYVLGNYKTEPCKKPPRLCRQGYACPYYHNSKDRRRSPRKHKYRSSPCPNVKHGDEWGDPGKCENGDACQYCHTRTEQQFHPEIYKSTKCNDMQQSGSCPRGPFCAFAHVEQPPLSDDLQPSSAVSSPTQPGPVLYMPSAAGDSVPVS
Shared flanks, not repeated: GGGAGUUCUACAGUCCGACGAUC … CAACAGAGGAUUGAGCAUCA
Sequence	bound/input enrichment [ratio]
GAGAUUGUCUUCCAGGGCUAGCAAUUGGACUUUUGAUGAUGUUUGACCCAGCGGCAGGAACCGCAGGCAACGUGAUUUCAAAGCUGGGCUCAGCCUCUGUUUCUUCUCUCGUGUAAUCGC	0.268
UUUGCUCGACACACGGCUCUCAAGCCCCACGCAUGUCCUCGAUGCGGUAAGGGCUUCAAGCACCGCUUCAACUUGGCUAACCACCUGCGCUCACACACUGGUGAACGACCCUACCGAUGC	0.137
AAACAAGAGACCCUCCCUCCCGGCCAUGUUCCUUGCGGCAGUUGGUGAACUGAGUCUGUAAACCGGGCCCUACCGGUUUUUGUUUUUGUUUUGUUUUGUUUUUCUGUAGGCCUGCAUUGU	0.488
UCAAUAGAAGAGGAAAGGAAUGUCCCAUUGGCAACUGACUUGAUCCGAAUAAGUCAAUACCGGUUUACGGUUUCAGACUUGAUGAGAAUGGAAAAGAUUGUAUUGGAGAAGGUGUGUUGG	0.14
ACAAAUUCUAAGUCGGAGGAAGACAAGCAGCUAGCCAAUUCUUUAGAGAGCGUAGGGCCAACCGAUUACAUUCUCCCAAGCUGUGGGAUUAUUGUGUCAGCACCUCGAUUAGGCAGUCGG	0.438
AUUUAUAUUUGUGAAAAAUGCCACUGUCCUAGUGAUUUCUGAUGUAAAUAAUGUUGUUUAUACCGUAUGUAUUAAAUUUUCCUACAUUGUAAAACUGCUGUACUUUUGAUUCUUGUAUAU	0.183
UACAUCGCAUUAGACAUUUUUACAUGAGAAAAGUCAAAUUUACUCAACAGAAUUACCAUGACCGACUUUCACAAAUUCUAACAGAUUUCCCCAAAUUGGAUGAUAUUCAUCCGUUCUAUG	1.79
UGUCUGACUUGCUGCUCCAGGGAUGUCAUAGUUAAAGUUGACCAGAUCUGUCACAAAAACCGCAUCAAGUUCUUUACAGGAGAUGUUUUUGGCUACCAUGGAUACACAUUUGCCAAUCUA	0.116
CCAAGUGAUUCAUUCCAAGGACAGGCAGCCCAGUCUGGUGUUUGGAAUGACGACAGUAUGUCCGGGCCUAGUCAAAAUUUUGAAGCUGAGUCAAUUCAAGAUAAUGCGCAUAUGGCAGAG	0.274
CUGGGACCUGAAGGACUGGAUCUGAUUGAGAAGCUGCUCCAGAACAGAAUUACAAUUGCCGAUCGGUUCCUUAAUUCCUCGAGCGAUCAUAAGUUUCAAGUUCUCCAAGAUAGUUGUAAA	0.521
CUUGUGCAUGCCCCACCUAUGCAACUGGGAUUCCCAUCCCUGCACUCGUUCAUCAAGGAACACCGUCUUCAGGUAUCCCCCAGCUUAGAGAAAGGGGCUAAGGCAGACACAGGCCUUGAU	0.237

Set 4 — method: RNA Bind-n-Seq; form: RNA; matrix: in vitro; tested at: 365 nM; baseline: no-protein control; reading: higher = stronger binding
Target: RNA binding protein fox-1 homolog 2, RRM domain, GST-SBP tag (RBFOX2, Homo sapiens, UniProt O43251-10, residues 100-194)
Notes: natural RNA segment, single round, ends assumed
Shared flanks, not repeated: GGGAGUUCUACAGUCCGACGAUC … UGGAAUUCUCGGGUGCCAA
Target sequence (chain): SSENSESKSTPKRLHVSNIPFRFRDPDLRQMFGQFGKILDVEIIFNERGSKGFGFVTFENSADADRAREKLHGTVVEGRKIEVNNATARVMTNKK
Sequence	RBNS enrichment (R)
CUCCAAAACCCAUGAACACGGCCAAAACCCAUAAAAACAACAAAAGCAAACUAAGUCAAGAACCGUAGUAUCUGUAGGCACUUAGUUAAGUAUAGCAACUCAAACCAGAC	0.896
GAAAGGACUGACAGUGGCGGUGCCCCAUAGGAUGUCAUAUUGAGGCCCAAACUUGAUUGGAGAAUUUGCAAACUACCGUCGCUCAGCAACACCAAAAAGAGAAAGUCUGG	1.2
UUGAGAGAGCAGGGUAAGGAAGGAAUGUGCUAGAAGUGCUCCUAGUUUCUUGUAAAGGAAGCCAGAGUUGACAGUACAAAGGGUCGUGGCCAGCCCUGCAGCUUCAGCAC	1.77
UAAAUCAUGCUAGCAGCCUUAAGAGGUAAAGCCAUUGGAGAGAAGUGUCAAGCAUGGGAGCUAAAAUGAGUAAUCUGUGUUACCACACUCUUAGUACUAUCAUUUUUUUU	2.45
GGUUAUUUUUGUAUGAUCUAGUAACUUGCAAACAGACCAAAUGGAUGAGAGGCGGGGACCGUGCAGCUGUCGGCUGAUGAGGAGGCGGCCGCCCCAGUGCUGAUGGAGAU	1.44
CAGAAGGUCAUCAGAUUGUGAGACUGCUUCCUUGAAACAUUUUUGUGCUAUUGUUUUAAAAAAAUAAUUAAAAAACAGUUGGCGUUAAUAAAAAUGUCAAUGUGAAACUG	0.372
AUUUAGUUUUUAGGUUUCUUUUUUUCUCUAUAACUUAUUCUUGCCUUCCCACCUCAAGCGUCUGUAUAACAUUUAGACUACACAUAAAGUUUAUGUGGUACAGACAUGCC	0.707
AGAGCCAUUUUUUAAAAAUGCCGAGCAGGGCAAUGCAAGUACAGCCAAAUAUUAGACUUGAUGUGCAAUCUUCGGUCCUUUUUAAUCUGGGGUAUUAUAGGCAGUACUUU	0.447
AUCCUUACACUUCAUAAACUUUUGUCUCCACGUUGUUACCAUAUUUGGAGACAGAAACAGGAGUUUCUCCAAAUCCAAUGAAAACAUGGAAAAUUCAAGGAUUGUUUAAA	0.276
AUCGCUCUUUUCCACUCCAAGAUGCCCUCAUAAACCAAUGUGGCAAGACUACUGGACUUCUAUCAAUGGUACUCUAAUCAGUCCUUAUUAUCCCAGCUUGCUGAGGGGCA	0.386
CAGCUCAGGACGUGGGGCCGAUCUGUGUGAGUCCAGCAUGUACCUGUGUCCCCCGUAGUAUCCCCGCAGCCCAGGCCGACGAGGCCCACCCCUGGACUUGAUCAGUAUUC	4.89
AGAAAUCUGAAAGCACCUCUGACAUUCCUUUUAUUAACUCACCUCUCAGUUGAAAGAUUUCUUCUUUGAAAGGUCAAGACCGUGAACUGAAAAAAGUGUUGGCCUUUUUG	0.672

Set 5 — target: CCNB3, cyclin fold, Cln2 fusion (human); method: yeast growth competition, sequencing; matrix: yeast; notes: weak parent motif; baseline: not given; reading: higher = stronger binding
Starting sequence: E2F1 docking peptide (human); PPVKRRLDLETDH
Variant	normalised enrichment score
E10C	0.143
R6M	0.423
V3H	0.17
L7I	0.246
V3T	0.0754
E10K	-0.00842
H13M	0.414
E10Q	0.365
D8V	0.55
D12K	0.854
R5S	0.0395
K4A	0.834
D8G	0.671
D8T	0.953
R5W	0.279
R6G	0.158
H13P	0.721
E10M	0.225
D12I	0.132
T11V	0.445

Repeated from above (set 1):
Sequence	E-score
GCACGTGC	0.495
CATGCGCC	0.442
TCCATGCA	0.335
CCCGCGCG	0.289
GGAACGCA	0.293
ATGAGGTG	0.307
CGTGGAGA	0.362
AAACGTGG	0.438
ACACGCGT	0.461
